Measured values pooled from the literature.
± gives the spread as reported.
Target: Delta-type opioid receptor (Oprd1, Rattus norvegicus, UniProt P33533)
Sequence of UniProt P33533 (whole entry, looked up): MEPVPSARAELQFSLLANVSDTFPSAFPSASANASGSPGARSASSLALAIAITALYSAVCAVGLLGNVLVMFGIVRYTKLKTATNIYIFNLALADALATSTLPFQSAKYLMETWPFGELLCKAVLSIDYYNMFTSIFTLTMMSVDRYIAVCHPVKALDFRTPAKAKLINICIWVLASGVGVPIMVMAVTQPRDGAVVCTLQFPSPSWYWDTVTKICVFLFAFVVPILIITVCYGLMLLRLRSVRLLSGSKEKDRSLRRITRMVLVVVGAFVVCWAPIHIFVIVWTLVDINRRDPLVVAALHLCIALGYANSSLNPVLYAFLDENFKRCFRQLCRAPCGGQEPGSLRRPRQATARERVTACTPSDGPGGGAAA

Cc1cc(O)cc(C)c1CC(N)C(=O)NC1CCNc2c1cc(Cc1ccccc1)cc2C(C)(C)C (stereo not shown) — maximal stimulation (GTPγS binding, agonist; C6 cells expressing DOR; reference: DPDPE at 10 µM): 42%
CC(=O)N1CCC(NC(=O)C(N)Cc2c(C)cc(O)cc2C)c2cc(CN3CCc4ccccc4C3)ccc21 (stereo not shown) — Ke (antagonist; 30 nM, added: DPDPE): 4.6 nM
Cc1cc(O)cc(C)c1CC(N)C(=O)NC1CCNc2c(CN3CCOCC3)cc(Cc3ccccc3)cc21 (stereo not shown) — maximal stimulation (GTPγS binding, agonist; C6 cells expressing DOR; reference: DPDPE at 10 µM): 29%
Cc1cc(O)cc(C)c1C[C@H](N)C(=O)N[C@@H]1CSCCSC(C)(C)[C@H](C(=O)O)NC(=O)C2(Cc3ccccc3C2)NC1=O — cAMP level (forskolin-stimulated cAMP; C6-DOR; 10 µM; reference: forskolin alone): 91 ± 6%
N[C@@H](Cc1ccc(C(=O)NCCc2ccc3ccccc3c2)cc1)C(=O)N1Cc2ccccc2C[C@H]1C(=O)N[C@@H](Cc1ccccc1)C(=O)N[C@@H](Cc1ccccc1)C(=O)O — relative affinity (binding, [3H]DSLET displacement; rat brain membranes; reference: DPDPE): 5 to 8 fold
Cc1cc(O)cc(C)c1C[C@H](N)C(=O)N1Cc2ccccc2C[C@H]1C(=O)NCC(=O)NCc1ccccc1 — inhibition (forskolin-stimulated cAMP, agonist; C6-DOR; concentration not given): 28 ± 2%
CC(C)C[C@H](NC(=O)[C@H](Cc1ccc2ccccc2c1)NC(=O)CNC(=O)[C@H](NC(=O)[C@@H](N)Cc1ccc(O)cc1)[C@H](C)O)C(=O)N[C@@H](CO)C(N)=O — Emax (GTPγS binding, agonist, radiometric; cell membranes): 196%
N[C@@H](Cc1ccc(C(=O)NCCc2cccc3ccccc23)cc1)C(=O)N1Cc2ccccc2C[C@H]1C(=O)N[C@@H](Cc1ccccc1)C(=O)N[C@@H](Cc1ccccc1)C(=O)O — selectivity ratio (binding, [3H]DSLET displacement; rat brain membranes; reference: Ki mu over Ki delta): 250 to 520
CC(C)C[C@H](NC(=O)[C@H](Cc1ccc2ccccc2c1)NC(=O)CNC(=O)[C@H](NC(=O)[C@@H](N)Cc1ccc(O)cc1)[C@H](C)O)C(=O)N[C@@H](CO[C@@H]1O[C@H](CO)[C@@H](O)[C@H](O)[C@H]1O)C(N)=O — Emax (GTPγS binding, agonist, radiometric; cell membranes): 144%
Cc1cc(O)cc(C)c1C[C@H](N)C(=O)N[C@@H]1CCNc2ccc(Cc3ccccc3)cc21 — maximal stimulation (GTPγS binding, agonist; C6 cells expressing DOR; reference: DPDPE at 10 µM): 16%

For quick reference, copied from above:
CC(C)C[C@H](NC(=O)[C@H](Cc1ccc2ccccc2c1)NC(=O)CNC(=O)[C@H](NC(=O)[C@@H](N)Cc1ccc(O)cc1)[C@H](C)O)C(=O)N[C@@H](CO)C(N)=O — Emax (GTPγS binding, agonist, radiometric; cell membranes): 196%
